Measured values pooled from the literature.
Every numbered part comes from another study and shows a few of its results, in no order. Substitutions count along the parent as printed.

Sample 1
Target: UBE2I UBC core domain (UniProt P63279)
Technique: yeast two-hybrid
Medium: yeast
Setting: mostly zero background
Reference: not given
Direction: higher = stronger interaction
B1: MDM4 RING domain (UniProt O15151); chain MEDCQNLLKPCSLCEKRPRDGNIIHGRTGHLVTCFHCARRLKKAGASCPICKKEIQLVIKVF
B2: MAP3K1 RING domain (UniProt Q13233); chain NSIKDEEEQMCPICLLGMLDEESLTVCEDGCRNKLHHHCMSIWAEECRRNREPLICPLCRSKWRSHDFYS
B3: DZIP3 RING domain (UniProt Q86Y13); chain PDEEEEEEEPCVICHENLSPENLSVLPCAHKFHAQCIRPWLMQQGTCPTCRLHVLLPEEFP
B4: RNF121 RING domain (UniProt Q9H920); chain MPTKHLSDSVCAVCGQQIFVDVSEEGIIENTYRLSCNHVFHEFCIRGWCIVGKKQTCPYCKEKVDLKRMFS
B5: TRIM62 RING domain (UniProt Q9BVG3); chain MACSLKDELLCSICLSIYQDPVSLGCEHYFCRRCITEHWVRQEAQGARDCPECRRTFAEPALAP
B6: RFWD3 RING domain (UniProt Q6PCD5); chain ASMDEEEGDTCTICLEQWTNAGDHRLSALRCGHLFGYRCISTWLKGQVRKCPQCNKKARHSDIVV
B7: RNF133 RING domain (UniProt Q8WVZ7); chain DEEINPNGDSCVICFERYKPNDIVRILTCKHFFHKNCIDPWILPHGTCPICKCDILKVLGIQ
B8: UBOX5 RING domain (UniProt O94941); chain EQPGSILGPECASCKRVFSPYFKKEPVYQLPCGHLLCRPCLGEKQRSLPMTCTACQRPVASQDVLR
B9: RBCK1 RING domain (UniProt Q9BYM8); chain SLVLNTEPAECPVCYSVLAPGEAVVLRECLHTFCRECLQGTIRNSQEAEVSCPFIDNTYSCSGKLLEREIK
B10: RNF19A RING domain (UniProt Q9NV58); chain ISKQIGDFIECPLCLLRHSKDRFPDIMTCHHRSCVDCLRQYLRIEISESRVNISCPECTERFNPHDIR
Molecule	lacZ reporter activity
YQNEVDDDLVCHICLQPLLQPLDTPCGHTFCYKCLRNFLQEKDFCPLDRKRLHFKLCKK (LNX2 RING domain (UniProt Q8N448))	0
B1 (MDM4 RING domain)	0
B2 (MAP3K1 RING domain)	0
B3 (DZIP3 RING domain)	0
AMYLQENGIDCPKCKFSYALARGGCMHFHCTQCRHQFCSGCYNAFYAKNKC (RNF31 RING domain (UniProt Q96EP0))	0
KLRKLKEAMLCMVCCEEEINSTFCPCGHTVCCESCAAQLQSCPVCRSRVEHVQHVY (MYLIP RING domain (UniProt Q8WY64))	0
B4 (RNF121 RING domain)	0
B5 (TRIM62 RING domain)	0
KETIKKTTKPCPRCHVPVEKNGGCMHMKCPQPQCRLEWCWNCGCEWNRVCMG (PRKN RING domain (UniProt O60260))	0
B6 (RFWD3 RING domain)	0
AVPSGLEENLCKICMDSPIDCVLLECGHMVTCTKCGKRMNECPICRQYVIRAVHVF (RFFL RING domain (UniProt Q8WZ73))	0
B7 (RNF133 RING domain)	0
B8 (UBOX5 RING domain)	0
B9 (RBCK1 RING domain)	0
B10 (RNF19A RING domain)	0

Sample 2
Target: Prothrombin, mature alpha-thrombin (F2, Homo sapiens, UniProt P00734)
Technique: aptamer microarray, sandwich
Molecule type: DNA with 2'F-ANA
Medium: in vitro
Concentration: 200 nM
Setting: whole 15-mer aptamer, many near background
Together with: Cy3 exosite-II aptamer, 400 nM
Direction: higher = stronger binding
Sequence: GGTTGGTGTGGTTGG
Modification	mean fluorescence intensity [a.u.]
2'F-ANA at 1 2 3 5 7 8 9 10 11 14 15	47.7
2'F-ANA at 1 2 7 8 9 10 11 14	44.6
2'F-ANA at 4 7 8 9 11 12 13 14 15	98.4
2'F-ANA at 1 2 7 8 10 11	52.2
2'F-ANA at 3 6 8 11 12 13 14 15	514
2'F-ANA at 1 2 4 5 10 11 12 13	50.1
2'F-ANA at 1 2 4 5 6 7 11 13 14	47.9
2'F-ANA at 5 8 14 15	48.4
2'F-ANA at 1 2 3 4 5 6 13 15	52.6
2'F-ANA at 1 7 10 13 14	53.9
2'F-ANA at 2 5 8 9 10 11 12 15	77.7
2'F-ANA at 2 3 5 7 8 9 12 15	254
2'F-ANA at 3 4 6 9 10 11 13 15	185
2'F-ANA at 1 4 8 10 11 13	50.4
2'F-ANA at 2 3 4 5 6 9 12 13 14	49.7
2'F-ANA at 3 5 8 9 11 12 15	197
2'F-ANA at 1 2 3 13 14 15	67.2
2'F-ANA at 1 2 4 6 8 10 15	50.3

Sample 3
Partner: ARF14 497-605 (Arabidopsis thaliana, UniProt Q9LQE8)
Technique: two-hybrid
Reference: out of 4 tests
Direction: higher = firmer interaction
B11: IAA32 (Arabidopsis thaliana, UniProt Q8RYC6); chain MDPNTPADFFKGSSKFHTYYSQTKKGGGVIDLGLSLRTIQHETYLPPARMIGLDGYGELIDWSQPSYNSITQLKSEDTGHQRLAQGYYNNEGESRGKYAYVKVNLDGLVVGRKVCLVDQGAYATLALQLNDMFGMQTVSGLRLFQTESEFSLVYRDREGIWRNVGDVPWKEFVESVDRMRIARRNDALLPF
B12: ARF2 727-859 (Arabidopsis thaliana, UniProt Q94JM3); chain TKTNSSRSCTKVHKQGIALGRSVDLSKFQNYEELVAELDRLFEFNGELMAPKKDWLIVYTDEENDMMLVGDDPWQEFCCMVRKIFIYTKEEVRKMNPGTLSCRSEEEAVVGEGSDAKDAKSASNPSLSSAGNS
B13: ARF8 699-811 (Arabidopsis thaliana, UniProt Q9FGV1); chain NSSNQTKNFVKVYKSGSVGRSLDISRFSSYHELREELGKMFAIEGLLEDPLRSGWQLVFVDKENDILLLGDDPWESFVNNVWYIKILSPEDVHQMGDHGEGSGGLFPQNPTHL
B14: IAA28 (Arabidopsis thaliana, UniProt Q9XFM0); chain MEEEKRLELRLAPPCHQFTSNNNINGSKQKSSTKETSFLSNNRVEVAPVVGWPPVRSSRRNLTAQLKEEMKKKESDEEKELYVKINMEGVPIGRKVNLSAYNNYQQLSHAVDQLFSKKDSWDLNRQYTLVYEDTEGDKVLVGDVPWEMFVSTVKRLHVLKTSHAFSLSPRKHGKE
B15: ARF6 790-935 (Arabidopsis thaliana, UniProt Q9ZTX8); chain SENPQSNTFVKVYKSGSFGRSLDISKFSSYHELRSELARMFGLEGQLEDPVRSGWQLVFVDRENDVLLLGDDPWPEFVSSVWCIKILSPQEVQQMGKRGLELLNSAPSSNNVDKLPSNGNCDDFGNRSDPRNLGNGIASVGGSFNY
B16: IAA34 (Arabidopsis thaliana, UniProt Q9C5X0); chain MYCSDPPHPLHLVASDKQQKDHKLILSWKKPTMDSDPLGVFPNSPKYHPYYSQTTEFGGVIDLGLSLRTIQHEIYHSSGQRYCSNEGYRRKWGYVKVTMDGLVVGRKVCVLDHGSYSTLAHQLEDMFGMQSVSGLRLFQMESEFCLVYRDEEGLWRNAGDVPWNEFIESVERLRITRRNDAVLPF
Residues (chain): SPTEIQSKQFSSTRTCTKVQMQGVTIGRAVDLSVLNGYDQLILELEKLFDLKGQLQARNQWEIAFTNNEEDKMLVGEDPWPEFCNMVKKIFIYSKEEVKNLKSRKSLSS
Molecule	positive tests
B11 (IAA32)	0
B12 (ARF2 727-859)	0
B13 (ARF8 699-811)	0
B14 (IAA28)	0
B15 (ARF6 790-935)	0
B16 (IAA34)	0

Sample 4
Target: CCNB1, cyclin fold, Cln2 fusion (human)
Technique: yeast growth competition, sequencing
Medium: yeast
Setting: strong parent motif
Reference: not given
Direction: higher = stronger binding
Starting sequence: E2F1 docking peptide (human); PPVKRRLDLETDH; partner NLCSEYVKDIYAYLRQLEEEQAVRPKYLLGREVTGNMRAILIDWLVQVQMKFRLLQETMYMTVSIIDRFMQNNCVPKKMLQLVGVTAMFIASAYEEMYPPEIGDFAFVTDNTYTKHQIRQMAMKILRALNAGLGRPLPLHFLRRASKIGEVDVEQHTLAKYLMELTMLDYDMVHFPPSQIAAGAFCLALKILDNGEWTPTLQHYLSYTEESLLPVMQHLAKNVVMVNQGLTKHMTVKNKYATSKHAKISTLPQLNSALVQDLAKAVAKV
Change	normalised enrichment score
H13M	1.84
D8G	0.816
R6Y	0.595
H13V	1.57
D12L	1.11
T11D	1.99
V3K	0.613
P2H	1.24
E10A	1.54
V3W	0.553
H13E	2.39
H13S	1.35
T11G	1.19
T11H	0.63
K4F	1.22
K4Q	1.56
T11S	1.82
L7K	0.3
T11Y	2.55

Sample 5
Target: ABI1, truncated, D143A, DHFR fusion (Arabidopsis thaliana)
Technique: DHFR PCA, deep sequencing
Medium: yeast
Setting: methotrexate growth selection, single substitutions
Together with: (+)-ABA 58 µM
Reference: wild-type fitted maximum
Direction: higher = stronger binding
Starting sequence: PYL1, truncated, DHFR fusion (Arabidopsis thaliana); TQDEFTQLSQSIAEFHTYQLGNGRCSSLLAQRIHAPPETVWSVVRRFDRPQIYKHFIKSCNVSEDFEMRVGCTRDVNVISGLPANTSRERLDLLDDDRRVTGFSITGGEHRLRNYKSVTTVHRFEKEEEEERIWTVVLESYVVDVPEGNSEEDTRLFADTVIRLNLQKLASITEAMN; partner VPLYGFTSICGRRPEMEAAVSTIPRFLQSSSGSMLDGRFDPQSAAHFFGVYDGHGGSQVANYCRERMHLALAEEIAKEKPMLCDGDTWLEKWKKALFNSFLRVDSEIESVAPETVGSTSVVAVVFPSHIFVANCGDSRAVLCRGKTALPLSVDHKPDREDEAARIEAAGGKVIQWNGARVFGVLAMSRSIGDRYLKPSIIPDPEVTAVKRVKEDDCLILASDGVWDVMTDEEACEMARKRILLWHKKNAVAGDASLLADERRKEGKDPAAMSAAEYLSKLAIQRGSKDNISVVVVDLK
Change	relative binding score [%]
T173E	-0.836
E152I	72.9
A158G	47.9
Y141F	56.2
S27R	56.9
I57Y	6.62
R163M	61.5
T106H	77
Q167V	73.8
D96H	44.1
